Measurements from different studies.
A part holds a random share of what one study measured.

Set 1
Target: PABPC1L2, full length, GST fusion (mouse, UniProt A0ABA7IW68)
Technique: RNAcompete
Form: RNA
Sample: in vitro
Tested at: 20 nM
Setting: 7-mer, probes averaged, single round
Relative to: mean of 7-mers
Reading: higher = stronger binding
Target sequence (chain): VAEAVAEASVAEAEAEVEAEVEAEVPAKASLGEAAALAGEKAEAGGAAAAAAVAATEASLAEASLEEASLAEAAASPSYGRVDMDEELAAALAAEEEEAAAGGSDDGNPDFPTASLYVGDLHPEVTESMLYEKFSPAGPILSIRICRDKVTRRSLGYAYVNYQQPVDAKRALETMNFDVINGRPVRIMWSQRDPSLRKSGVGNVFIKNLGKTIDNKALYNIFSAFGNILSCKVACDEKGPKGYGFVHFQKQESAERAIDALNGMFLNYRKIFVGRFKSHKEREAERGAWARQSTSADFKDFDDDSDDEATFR
Oligonucleotide	7-mer Z-score
UCAGCGA	-0.17
UCCUCAC	-0.3
GCUAGCU	-0.226
AGUCCCG	-0.275
UAAGACA	0.196
CGUGUCA	-0.338
ACAUGUA	0.0623
CGGCUGC	-0.202
AAGGGGC	0.805
CUCGCUC	-0.298
GGAUCUC	-0.0718
GUCCUGU	-0.296
GUGCUAA	0.137
CAGGCAG	0.216
GUCUGGA	-0.151
UCGUCUU	-0.57
CAAAGUG	0.263
ACAGAGG	0.53
AAGAAAU	1.36
CUAUUCU	-0.302
GCACCGA	0.0623
CAGGAAA	0.653
UCAAAAG	0.769
CUUCGCA	-0.257

Set 2
Target: RNA binding protein fox-1 homolog 2, RRM domain, GST-SBP tag (RBFOX2, Homo sapiens, UniProt O43251-10, residues 100-194)
Technique: RNA Bind-n-Seq
Form: RNA
Sample: in vitro
Tested at: 365 nM
Setting: natural RNA segment, single round, ends assumed
Relative to: no-protein control
Reading: higher = stronger binding
Shared flanks, not repeated: GGGAGUUCUACAGUCCGACGAUC … UGGAAUUCUCGGGUGCCAA
Target sequence (chain): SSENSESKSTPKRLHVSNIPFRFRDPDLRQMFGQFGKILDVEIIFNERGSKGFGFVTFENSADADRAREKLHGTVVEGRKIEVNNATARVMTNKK
Oligonucleotide	RBNS enrichment (R)
GCUUGGAUUUUAUGCAGUAGGCUUUACUACAGUACAUGGCUAAUCUUCCCCAAACUAGCUCAUUAAAGAUGAAAUAGACCAGCUCUCUUCAGUGAAGAGGACAAAUAGUU	0.316
AUUUUAAGAUAGGCGAGCACACACUAAUAAUAUCUAUGCCUACCUUCUUGGGUGGACUCAACUGUAACCACAGUUUAUUAGUUGCUUAGAAGUGGAUUUUUAAAAAACAG	0.617
UCUAGAGGAAUUUGGUCUAUGCUUGUCCACCAGGCUACCAGCUAGGGCUCUAGAGAAAGCAGCUAGUGGUUUCUUUGUCUUGGAACAGGCAGGGUAAGGGUGGGCACAUU	0.529
GGAGGAGGAAGAGGAGGAAGAAAGAUGGUGGGAAAGACAUCCAAGACUUUCUCGCUUUCUAAAUGCGGCAAUUUCCUGGUACUGCCUUAAAGACACAGUGCCCUCCCUUC	0.243
GUGGUUUCGUAGAGUAAAACCCAAGUGAGGAGGGAUGUGUGGGGUUUCCAUUAGGAAAUAAUUUCGUUCUUGGUUUACUCUUUAAGAUCCUUCUCUGCUAGUUUAGAAUA	1.27
CCAAGGGUCCCUGUGUGUGUGUAUGUGUGUGCAUGUGUGCGUGUCUCCAUGUGCGUCCAUAUUUAACAUGUAAAAAUGUCCCCCCCGCUCCGUCCCCCAAACAUGUUGUA	0.349
UUGAGCAGAAUGACUUGACUGAGUGGUUCUUUGUUGGCCUCAGUUGCUUUAUGUGGGCAUGAGAUGUCCCGUGAGGUCAUAGCUCCUUCUUUAGGAACUGCCUGUCCAUG	0.709
CAGCUGUUACCACCCUCUCAGCCUGACGAGACUUAGGCUUCUUAAGAUGUCCUUCCAGCUUGUCAGACACUGCCUACCCUCUCCCUGAAUGAGCACUGGCUGAGGCUGUG	0.266
CGAUUGAGUAGCUGAGAUUACAGGCAUGCAUCACUAUGCCUGGCUUUUUGUAUUUUUUAGUAGAGAUGGGGUUUACCAUGUUGGCCAGGCUAGUCUCAAACUCCUGACCU	1.12
CUCAGCCUCCUGCUGCCCUGCCUUGAGCUGCCAGAGGAGGCCUUGGCGUUGCUAGGAUUGCGUCAGUUUUCCUGUUUGCACUAUUUCUUUUUGUAACAGUGACCCUGUCU	0.25
UGGGUCUUGGGAGCUCUUGCCUUCACCUGUGGAUCCACUUAAGACAUUGUGGUCUGAAGCUCAGGCCACAGUGCCUGCCUCGUUCCCUCAGCCUCCCUCCCAGGGCUCCA	0.401
UUAAACACGGCCUUGGCCUAAGGCCUGGCUGGCUAGUGCUCUGAGUGACUCUAUUUUCCCUGAGCUUGCUCCCUGAGGACCCACCACAGCCUCAUCCUUUGCCUUGCUGG	0.442

Set 3
Target: Interferon regulatory factor 5, full length, phosphomimetic (IRF5, Homo sapiens, UniProt Q13568-2, residues 1-514, K96S/S451D/S453D/S456D/S462D)
Technique: protein-binding microarray
Form: double-stranded DNA, one strand shown
Sample: in vitro
Tested at: 250 nM
Setting: 60-bp whole probe
Added: salmon DNA 0.4 mg/ml
Relative to: random background probes
Reading: higher = stronger binding
Shared flanks, not repeated: GCCTAGCAC … GTCTTGATTCGCTTGACGCTGCTG
Oligonucleotide	log fluorescence [z-score]
AGGAATCTTGAGTTAGAGACGTGCTAG	-0.437
GAAGAACTGAGTCTCGAGACGTGCTAG	-0.3
TTAGGTTTCGGGACTGAGTTAGTGCTA	6.08
TTAGAAATGAGTATCGATTAGTGCTAG	7.23
TATGAAATGGAAGTTTAGGGGTGCTAG	0.213
GGGATAAGGACAGACACCATGTGCTAG	-0.166
GACGGCCTGGACTATCGGGACGTGCTA	0.459
TTAGGTTTCGTGTTTCGGTTAGTGCTA	8.94
TTAGGTTTCGGTCTCGATTAGTGCTAG	10.3
TTAGAACTGAGTGTCGATTAGTGCTAG	0.393
TTAGGTAGCGGTCTCGGTTAGTGCTAG	0.3
GCCGGTCTCCTACTGCTGACGTGCTAG	-0.177
GACGGTCTCGGACTGGGGGCGTGCTAG	0.295
TACGATATCAGTATCGAGACGTGCTAG	3.29
TTAGATATCGGGACTTGATTAGTGCTA	1.17
TCAGGTCTCCCTTGAGGTTTGTGCTAG	-0.49
GTAGAACTGAGTTTCGATTAGTGCTAG	9.23
TTAGGTTTCGGGTATTGGTTAGTGCTA	8.51
TCATCCCTCGGGTTGCGGACTGTGCTA	-0.197
CTTCCCCTCTAGGTTCTCTGAGTGCTA	0.0877
CAGCCTCTACCTCCTGGGCTCGTGCTA	-0.521
GTAGAACTGAGACTGGATTAGTGCTAG	-0.271
GTGCCCGCTGCTTCCGGTGCGTGCTAG	0.129
GACGGTGTCGGGTATCGGGACGTGCTA	0.229
TTAGATTTCAGTTCCGCTTAGTGCTAG	2.54

Set 4
Target: Histone acetyltransferase KAT6A, both winged helices, GST fusion (KAT6A, Homo sapiens, UniProt Q92794, residues 1-181)
Technique: protein binding microarray
Form: double-stranded DNA, one strand shown
Sample: in vitro
Tested at: not given
Setting: 8-mer, flanks averaged, mean of 2 arrays, mostly near background
Relative to: not given
Reading: higher = stronger binding
Construct (chain): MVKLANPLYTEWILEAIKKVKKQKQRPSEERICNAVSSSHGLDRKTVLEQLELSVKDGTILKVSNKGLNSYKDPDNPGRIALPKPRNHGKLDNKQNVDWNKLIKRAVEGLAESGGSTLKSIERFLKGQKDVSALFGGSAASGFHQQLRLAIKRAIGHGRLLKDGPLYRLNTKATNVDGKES
Oligonucleotide	E-score
ATTCACGA	-0.176
CAACAACA	-0.166
AGTTAAGG	-0.11
AATCGGCA	0.155
AAATCCGA	0.027
AACTAAGA	-0.0775
AACAAAAT	-0.0943
CAGCTAGC	-0.0139
ATTAGTCG	-0.0575
ATGGTGTG	-0.217
TTGAAAAA	-0.0918
TCGACTCA	-0.149
CGCTGTTC	0.22
ATTTTCGC	0.0989
GTCCTACA	-0.0872
CGACTTAG	-0.126
ATAACACG	0.17
AGCTGCGA	0.00843
ATCTTCGA	-0.00796
GTACGATA	-0.0589
ATCGCGGA	0.132
CTGCTGCC	-0.0647
AACGCCGC	0.26
GAACCAGA	-0.111
ACTAGCCC	-0.0662

Set 5
Target: RING finger protein unkempt homolog, zinc fingers 1-6, GST-SBP tag (UNK, Homo sapiens, UniProt Q9C0B0, residues 30-357)
UniProt Q9C0B0, sequence (30-357, looked up): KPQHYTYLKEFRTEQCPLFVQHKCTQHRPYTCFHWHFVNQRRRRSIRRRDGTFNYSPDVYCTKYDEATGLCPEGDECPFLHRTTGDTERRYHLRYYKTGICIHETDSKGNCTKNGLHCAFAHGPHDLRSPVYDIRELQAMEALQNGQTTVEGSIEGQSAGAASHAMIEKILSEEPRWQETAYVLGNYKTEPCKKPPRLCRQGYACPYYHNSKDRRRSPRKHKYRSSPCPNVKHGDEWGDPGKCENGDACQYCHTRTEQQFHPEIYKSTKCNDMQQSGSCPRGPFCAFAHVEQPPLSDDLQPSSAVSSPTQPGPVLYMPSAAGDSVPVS
Technique: RNA Bind-n-Seq
Form: RNA
Sample: in vitro
Tested at: not given
Setting: RNA with constant flanks, human-mouse chimeric sites, ends assumed
Relative to: input RNA pool
Reading: higher = stronger binding
Shared flanks, not repeated: GGGAGUUCUACAGUCCGACGAUC … CAACAGAGGAUUGAGCAUCA
Oligonucleotide	bound/input enrichment [ratio]
ACAGUUAUAUUGUUGAGGUUUGUAUUUAUAUAUUCUUGUAGUGUCUGCUUGCCUGUGUCUUUUAGUAAAAUAAAAUAAGCCUUUGAAAAUAUUUUAGCAUGGUAUUUAACAUUUUCUAAA	3.46
UCUGGUCACACUCGUGUAUAUGGUGUGUGCUUUGUUGACACUUCACUGGGCAAGUUUUUCAUCGGCCAGUUUUCGGAUGACCGCCACUGUUCCAGAUUUAGGACGCUAGUGGCUCACUAU	0.305
UAUUUUUGACAGCCACACAAUCUUGGCAUGUAUUAAGGAAAAAAAAAAUCCCUGUUGAAGUAGUUUUUCCACCUAUCAGCACUGAGUAAAUGCCAUAAAUCCAUUGAAAUGGUCUAAAUA	0.151
AGCACAACCCCAGCAAAGCUAAGAAAUCCUUGCACAAGUGAACAAAACUGCACCAGCCCAUUUAGCUACAAAAAUGUGCUUAGUCUUACUAAUAAAGGAGAGUUUUUCAAUGAACUUGUU	0.819
CACUCGAGGGCUGCCGUUUUCUGUUUCUCCCUGGGCUGCGGAAAGCCAGAAGAUUUUAUCUAGCUUAUACAAGGCUGCUGGUGUUCCCUCUUUUUUUCCCUCUCUCUGUUUUUGGCUGCA	0.604
GGAUCUUUGGGACUGUUUUACUUAAUUGGUCAUUGGUAGCUUAACAAACAUGGAGAUAAGAUUAGAAAUCUUGACAUCAACAGGUAUUAAGCAGAAAAAACCAUGGCCACGUGUCUCCUG	0.154
AGAUUCCCCCUCCUGAGACCUCCUCCGAAGUUGGAGUCUCUUAUAGAUGCCUCAUCCCCUGUUAGCGUUUUAGUUUGGACCACCCAGCCUUGGACAAUUCCCGCCAAUGAAGCUGUUUGC	3.46

Set 6
Target: Sal-like protein 4, full length isoform A (SALL4, Homo sapiens, UniProt Q9UJQ4, residues 1-1053)
UniProt Q9UJQ4, sequence (whole entry, looked up): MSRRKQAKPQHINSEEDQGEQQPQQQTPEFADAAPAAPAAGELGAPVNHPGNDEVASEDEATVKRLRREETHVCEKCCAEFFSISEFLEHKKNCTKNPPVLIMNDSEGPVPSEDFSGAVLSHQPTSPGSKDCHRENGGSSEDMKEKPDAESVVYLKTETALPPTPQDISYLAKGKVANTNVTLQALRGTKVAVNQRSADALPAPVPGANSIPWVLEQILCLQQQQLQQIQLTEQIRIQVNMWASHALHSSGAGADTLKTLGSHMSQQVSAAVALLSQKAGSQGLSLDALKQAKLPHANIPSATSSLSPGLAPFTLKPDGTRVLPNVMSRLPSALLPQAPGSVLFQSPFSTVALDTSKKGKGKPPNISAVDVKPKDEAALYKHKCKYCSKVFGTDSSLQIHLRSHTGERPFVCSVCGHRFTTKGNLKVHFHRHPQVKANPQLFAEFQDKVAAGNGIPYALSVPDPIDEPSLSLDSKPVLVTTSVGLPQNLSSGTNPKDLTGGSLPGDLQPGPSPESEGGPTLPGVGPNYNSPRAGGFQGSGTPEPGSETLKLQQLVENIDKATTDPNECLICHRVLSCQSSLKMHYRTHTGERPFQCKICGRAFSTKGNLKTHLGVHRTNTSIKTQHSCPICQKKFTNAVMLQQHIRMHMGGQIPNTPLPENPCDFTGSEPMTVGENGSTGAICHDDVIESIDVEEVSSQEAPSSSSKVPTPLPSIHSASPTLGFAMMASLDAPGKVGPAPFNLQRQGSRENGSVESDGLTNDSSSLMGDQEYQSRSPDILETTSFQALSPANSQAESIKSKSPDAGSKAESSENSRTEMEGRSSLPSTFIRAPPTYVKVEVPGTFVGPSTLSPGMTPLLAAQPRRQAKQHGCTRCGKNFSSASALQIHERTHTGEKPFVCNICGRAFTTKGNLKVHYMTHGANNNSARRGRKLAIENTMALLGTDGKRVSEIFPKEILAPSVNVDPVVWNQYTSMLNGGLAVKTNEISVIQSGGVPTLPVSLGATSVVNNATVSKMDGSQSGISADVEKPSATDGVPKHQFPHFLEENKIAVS
Technique: universal PBM
Form: double-stranded DNA, one strand shown
Sample: in vitro
Tested at: 600 nM
Setting: 8-mer, flanks averaged, mean of replicates
Reading: higher = stronger binding
Oligonucleotide	E-score
ACAACGGC	-0.241
ACTCCAGA	-0.00279
CCCCTTGC	-0.354
CGAATACA	0.13
CGGGGTGA	-0.139
GAACTTGA	0.119
ATCAGGCA	-0.0985
AAGCTAGC	-0.0956
AGATTATA	0.261
CGGCGCAG	-0.267
GCCAGCAA	-0.213
ACGTGATA	0.128
ATTAAAGG	0.286
GAGACCGC	-0.365
ACGCATAC	0.0431
AACTATGA	0.307
CCCCAGGG	-0.405
GCGGGAAC	-0.353
AGTGCCGA	-0.16
ACCTCCGT	-0.196
AAGTGGGC	-0.0661
AGATACAG	0.156
ATGGGAGC	-0.167
AGTCAGGA	-0.118
AATCTAAC	0.152

For quick reference, copied from above (set 4):
Oligonucleotide	E-score
AACTAAGA	-0.0775
AACAAAAT	-0.0943
CAGCTAGC	-0.0139
ATTAGTCG	-0.0575
ATGGTGTG	-0.217
TTGAAAAA	-0.0918
TCGACTCA	-0.149
